Results pooled from the literature.
Every numbered part comes from another study and shows a few of its results, in no order. Positions count from the first letter of the parent shown.
UniProt O24409, sequence (whole entry, looked up): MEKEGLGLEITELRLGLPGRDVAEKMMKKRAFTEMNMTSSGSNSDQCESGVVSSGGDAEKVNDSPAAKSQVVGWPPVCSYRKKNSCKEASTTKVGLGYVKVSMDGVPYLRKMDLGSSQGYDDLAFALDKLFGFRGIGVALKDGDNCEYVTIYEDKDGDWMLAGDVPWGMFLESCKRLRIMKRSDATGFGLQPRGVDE
UniProt Q8L7G0, sequence (whole entry, looked up): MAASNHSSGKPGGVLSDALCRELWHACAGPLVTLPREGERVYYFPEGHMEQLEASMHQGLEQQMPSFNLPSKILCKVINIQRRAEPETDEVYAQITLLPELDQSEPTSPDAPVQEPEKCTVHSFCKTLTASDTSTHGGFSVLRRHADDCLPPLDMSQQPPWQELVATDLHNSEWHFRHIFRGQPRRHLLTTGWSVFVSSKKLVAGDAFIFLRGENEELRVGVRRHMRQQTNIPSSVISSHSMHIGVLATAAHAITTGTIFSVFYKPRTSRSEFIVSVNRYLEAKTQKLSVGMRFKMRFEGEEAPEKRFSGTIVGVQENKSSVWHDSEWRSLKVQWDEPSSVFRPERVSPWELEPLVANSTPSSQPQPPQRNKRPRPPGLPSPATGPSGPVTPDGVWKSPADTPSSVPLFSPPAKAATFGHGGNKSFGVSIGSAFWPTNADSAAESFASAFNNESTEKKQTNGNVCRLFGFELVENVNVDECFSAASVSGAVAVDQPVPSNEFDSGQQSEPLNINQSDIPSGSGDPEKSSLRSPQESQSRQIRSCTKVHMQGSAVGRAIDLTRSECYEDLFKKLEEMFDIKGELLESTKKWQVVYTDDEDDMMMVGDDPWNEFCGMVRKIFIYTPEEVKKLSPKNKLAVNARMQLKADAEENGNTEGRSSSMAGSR
UniProt Q9BWU1, sequence (whole entry, looked up): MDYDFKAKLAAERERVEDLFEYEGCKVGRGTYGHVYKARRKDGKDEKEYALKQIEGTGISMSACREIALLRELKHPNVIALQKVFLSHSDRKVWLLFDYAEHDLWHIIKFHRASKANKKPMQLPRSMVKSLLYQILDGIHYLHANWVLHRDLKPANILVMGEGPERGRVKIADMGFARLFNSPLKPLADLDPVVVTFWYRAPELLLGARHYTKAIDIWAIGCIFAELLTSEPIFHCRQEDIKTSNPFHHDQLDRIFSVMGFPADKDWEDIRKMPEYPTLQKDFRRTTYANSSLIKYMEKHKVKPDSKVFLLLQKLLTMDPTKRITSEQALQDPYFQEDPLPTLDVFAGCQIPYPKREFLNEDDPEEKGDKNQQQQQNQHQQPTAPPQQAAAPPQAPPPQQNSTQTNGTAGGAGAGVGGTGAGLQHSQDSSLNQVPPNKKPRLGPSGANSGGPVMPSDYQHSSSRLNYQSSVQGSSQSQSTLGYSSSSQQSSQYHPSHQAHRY
UniProt Q9SKN5, sequence (whole entry, looked up): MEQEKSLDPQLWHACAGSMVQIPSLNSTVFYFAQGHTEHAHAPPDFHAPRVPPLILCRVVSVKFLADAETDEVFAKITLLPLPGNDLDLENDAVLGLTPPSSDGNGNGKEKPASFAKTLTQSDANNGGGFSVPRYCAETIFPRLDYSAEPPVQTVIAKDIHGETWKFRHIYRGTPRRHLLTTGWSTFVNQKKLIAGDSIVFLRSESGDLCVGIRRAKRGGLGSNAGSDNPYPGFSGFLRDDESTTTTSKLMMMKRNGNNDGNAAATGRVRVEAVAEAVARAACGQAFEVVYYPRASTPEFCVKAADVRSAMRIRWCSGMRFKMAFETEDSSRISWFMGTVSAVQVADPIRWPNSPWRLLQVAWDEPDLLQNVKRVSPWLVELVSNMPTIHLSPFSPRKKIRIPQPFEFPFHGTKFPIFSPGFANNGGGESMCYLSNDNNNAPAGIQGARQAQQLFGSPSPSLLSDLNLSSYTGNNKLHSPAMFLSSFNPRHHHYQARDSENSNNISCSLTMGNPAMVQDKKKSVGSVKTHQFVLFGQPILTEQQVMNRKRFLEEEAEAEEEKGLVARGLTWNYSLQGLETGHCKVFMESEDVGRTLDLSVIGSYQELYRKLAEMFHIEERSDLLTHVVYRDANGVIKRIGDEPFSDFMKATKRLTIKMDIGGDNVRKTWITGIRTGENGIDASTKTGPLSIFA
UniProt O75460, sequence (whole entry, looked up): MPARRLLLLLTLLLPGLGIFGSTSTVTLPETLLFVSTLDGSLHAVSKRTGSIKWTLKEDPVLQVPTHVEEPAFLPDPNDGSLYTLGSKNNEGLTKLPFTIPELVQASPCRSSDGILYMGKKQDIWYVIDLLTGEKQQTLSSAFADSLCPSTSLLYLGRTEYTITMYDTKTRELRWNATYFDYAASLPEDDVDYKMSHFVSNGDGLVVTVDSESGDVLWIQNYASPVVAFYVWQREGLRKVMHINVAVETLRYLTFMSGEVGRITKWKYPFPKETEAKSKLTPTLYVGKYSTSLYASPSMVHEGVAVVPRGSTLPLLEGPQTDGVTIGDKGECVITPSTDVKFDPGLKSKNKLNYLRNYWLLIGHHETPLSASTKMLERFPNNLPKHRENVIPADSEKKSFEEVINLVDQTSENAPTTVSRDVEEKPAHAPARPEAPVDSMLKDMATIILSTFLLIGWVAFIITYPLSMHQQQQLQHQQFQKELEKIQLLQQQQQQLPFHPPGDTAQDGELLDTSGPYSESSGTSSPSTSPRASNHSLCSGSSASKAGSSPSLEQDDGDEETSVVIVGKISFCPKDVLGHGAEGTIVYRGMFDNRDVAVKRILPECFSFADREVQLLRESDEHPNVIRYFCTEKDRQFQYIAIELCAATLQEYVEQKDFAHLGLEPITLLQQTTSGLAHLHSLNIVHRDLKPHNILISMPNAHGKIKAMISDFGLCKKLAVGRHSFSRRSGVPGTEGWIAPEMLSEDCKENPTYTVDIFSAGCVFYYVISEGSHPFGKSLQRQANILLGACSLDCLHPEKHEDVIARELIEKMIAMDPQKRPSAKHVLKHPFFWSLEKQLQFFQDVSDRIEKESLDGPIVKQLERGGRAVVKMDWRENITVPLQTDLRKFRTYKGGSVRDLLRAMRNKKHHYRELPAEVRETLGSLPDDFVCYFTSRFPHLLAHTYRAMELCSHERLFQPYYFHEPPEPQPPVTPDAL
UniProt P93022, sequence (whole entry, looked up): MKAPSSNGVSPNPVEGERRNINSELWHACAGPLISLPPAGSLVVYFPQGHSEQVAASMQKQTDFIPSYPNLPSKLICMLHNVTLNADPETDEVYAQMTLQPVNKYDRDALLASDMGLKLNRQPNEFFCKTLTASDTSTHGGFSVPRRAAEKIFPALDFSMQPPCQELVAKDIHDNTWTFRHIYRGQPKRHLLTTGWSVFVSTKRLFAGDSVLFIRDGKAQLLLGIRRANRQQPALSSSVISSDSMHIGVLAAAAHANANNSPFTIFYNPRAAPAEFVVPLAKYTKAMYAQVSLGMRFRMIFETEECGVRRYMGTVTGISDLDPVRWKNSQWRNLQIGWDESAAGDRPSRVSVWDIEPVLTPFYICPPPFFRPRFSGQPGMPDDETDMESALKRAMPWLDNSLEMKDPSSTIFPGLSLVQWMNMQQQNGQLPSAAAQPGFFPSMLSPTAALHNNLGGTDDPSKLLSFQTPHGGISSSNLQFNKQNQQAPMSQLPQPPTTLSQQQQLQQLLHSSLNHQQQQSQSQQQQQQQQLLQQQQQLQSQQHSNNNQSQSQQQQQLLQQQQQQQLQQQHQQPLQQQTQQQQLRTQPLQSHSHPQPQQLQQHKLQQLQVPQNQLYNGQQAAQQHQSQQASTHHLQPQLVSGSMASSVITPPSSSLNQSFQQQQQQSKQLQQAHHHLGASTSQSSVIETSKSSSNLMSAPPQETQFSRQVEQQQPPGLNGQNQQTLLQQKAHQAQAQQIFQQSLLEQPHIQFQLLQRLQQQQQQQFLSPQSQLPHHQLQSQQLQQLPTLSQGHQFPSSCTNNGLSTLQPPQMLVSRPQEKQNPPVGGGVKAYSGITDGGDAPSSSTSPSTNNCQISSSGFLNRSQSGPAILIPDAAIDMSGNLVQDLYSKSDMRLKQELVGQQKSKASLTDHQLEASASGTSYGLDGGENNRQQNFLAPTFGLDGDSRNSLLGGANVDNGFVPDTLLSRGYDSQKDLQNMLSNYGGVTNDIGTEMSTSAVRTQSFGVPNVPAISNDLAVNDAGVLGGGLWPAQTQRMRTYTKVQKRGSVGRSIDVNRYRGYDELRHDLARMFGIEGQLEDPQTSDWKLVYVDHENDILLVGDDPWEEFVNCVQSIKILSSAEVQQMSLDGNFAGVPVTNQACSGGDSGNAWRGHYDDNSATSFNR

Set 1 — Molecule: B1 (IAA1); method: two-hybrid; direction: higher = firmer interaction
T1: itself; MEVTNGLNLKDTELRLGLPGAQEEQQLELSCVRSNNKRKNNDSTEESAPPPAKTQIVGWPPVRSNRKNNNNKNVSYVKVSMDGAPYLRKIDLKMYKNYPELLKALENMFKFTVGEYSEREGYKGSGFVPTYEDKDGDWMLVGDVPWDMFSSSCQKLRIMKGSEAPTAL
B1: IAA1 (Arabidopsis thaliana, UniProt P49677); chain MEVTNGLNLKDTELRLGLPGAQEEQQLELSCVRSNNKRKNNDSTEESAPPPAKTQIVGWPPVRSNRKNNNNKNVSYVKVSMDGAPYLRKIDLKMYKNYPELLKALENMFKFTVGEYSEREGYKGSGFVPTYEDKDGDWMLVGDVPWDMFSSSCQKLRIMKGSEAPTAL
partner	scale	positive tests
IAA7 (Arabidopsis thaliana, UniProt Q38825)	relative to: out of 2 tests	2
ARF10 575-693 (Arabidopsis thaliana, UniProt Q9SKN5)	relative to: out of 4 tests	1
IAA19 (Arabidopsis thaliana, UniProt O24409)	relative to: out of 4 tests	4
ARF7 1030-1164 (Arabidopsis thaliana, UniProt P93022)	relative to: out of 4 tests	3
ARF1 538-665 (Arabidopsis thaliana, UniProt Q8L7G0)	relative to: out of 4 tests	0
IAA18 (Arabidopsis thaliana, UniProt O24408)	relative to: out of 4 tests	2
IAA16 (Arabidopsis thaliana, UniProt O24407)	relative to: out of 4 tests	3
T1, itself	relative to: out of 4 tests	2

Set 2 — concentration: 1 µM
Structure (SMILES): Nc1cnc(N2CCc3cc(S(=O)(=O)Nc4c(F)cc(Cl)cc4F)cc(N4CCCC4=O)c32)nc1
target	assay	remaining binding [%]
Cyclin-dependent kinase 19 (CDK19, Homo sapiens, UniProt Q9BWU1)	competition binding	100
Serine/threonine-protein kinase 32C (STK32C, Homo sapiens, UniProt Q86UX6)	cell-free assay, competition with immobilised ligand	100
Receptor-type tyrosine-protein kinase FLT3 (FLT3, Homo sapiens, UniProt P36888, D835H)	cell-free assay, competition with immobilised ligand	100
Aurora kinase C (AURKC, Homo sapiens, UniProt Q9UQB9)	cell-free assay, competition with immobilised ligand	100
BMP-2-inducible protein kinase (BMP2K, Homo sapiens, UniProt Q9NSY1)	cell-free assay, competition with immobilised ligand	88
Tyrosine-protein kinase HCK (HCK, Homo sapiens, UniProt P08631)	cell-free assay, competition with immobilised ligand	100
Dual specificity tyrosine-phosphorylation-regulated kinase 1B (DYRK1B, Homo sapiens, UniProt Q9Y463)	cell-free assay, competition with immobilised ligand	100
Serine/threonine-protein kinase/endoribonuclease IRE1 (ERN1, Homo sapiens, UniProt O75460)	cell-free assay, competition with immobilised ligand	100
Epidermal growth factor receptor (EGFR, Homo sapiens, UniProt P00533, del747-750/T751S)	cell-free assay, competition with immobilised ligand	100
Ribosomal protein S6 kinase alpha-4, N-terminal kinase domain (RPS6KA4, Homo sapiens, UniProt O75676)	cell-free assay, competition with immobilised ligand	100

Set 3 — target: ATF3, bZIP domain (human); method: DHFR protein complementation; medium: yeast; relative to: wild-type JUN-FOS pair; direction: higher = stronger binding
Setting: single substitutions, most at no-binding floor
Parent: JUN, bZIP domain (human); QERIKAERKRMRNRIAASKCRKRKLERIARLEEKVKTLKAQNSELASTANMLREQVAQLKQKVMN; partner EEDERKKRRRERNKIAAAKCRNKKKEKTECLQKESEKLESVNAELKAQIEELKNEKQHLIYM
Change	binding fitness
E44I	-0.171 natural log
V56G	-1.25 natural log
L38C	-0.762 natural log
N42K	-0.456 natural log
K39H	-0.299 natural log
A46D	-0.523 natural log
E44S	-0.233 natural log
S47Y	-0.146 natural log

Other studies, line by line
Structure (SMILES)	test system	quantity	value
CCOC(=O)[C@@H]1CSCC(=O)N[C@H](CC)C(=O)N(C)[C@@H](C)C(=O)N[C@@H](CC(C)C)C(=O)N2CCC[C@H]2C(=O)N(CC)CC(=O)N[C@@H](CC(C)C)C(=O)N(C)[C@@H](C)C(=O)N[C@@H](CC(C)C)C(=O)N1C	hydrocarbon/water	logD	-0.205

Excerpt of the above (set 2):
target	assay	remaining binding [%]
Serine/threonine-protein kinase/endoribonuclease IRE1 (ERN1, Homo sapiens, UniProt O75460)	cell-free assay, competition with immobilised ligand	100
Tyrosine-protein kinase HCK (HCK, Homo sapiens, UniProt P08631)	cell-free assay, competition with immobilised ligand	100
Cyclin-dependent kinase 19 (CDK19, Homo sapiens, UniProt Q9BWU1)	competition binding	100
